# Results gathered from unrelated publications.
# Lines come from different studies, so protocols differ.
# Target: Mitogen-activated protein kinase 15 (MAPK15, Homo sapiens, UniProt Q8TD08)
SMILES,test,setting,how to read,measurement,value
COc1ccc(O)cc1-c1c[nH]c2ncc(-c3cncc(C(=O)N(C)C)c3)cc12,"binding, competition with immobilised ligand",0.2 µM,,inhibition,-7.46%
COc1c(Cl)cccc1Nc1c(-c2ccncc2C#C[C@@]2(C)CCCN2C(=O)/C=C/CN(C)C)[nH]c2c1C(=O)NCC2,"binding, competition with immobilised ligand",3 µM,,remaining binding,100%
COc1cc(Nc2nc(C)cc(-c3cnn4nc(OC)ccc34)n2)cc(C(F)(F)F)c1,"binding, competition with immobilised ligand",1 µM,,remaining binding,96%
CNC1C[S+]2CC[S+]3CC[S+](C1)[Ru-4]321([N]=C=S)[n]2c3ccc(OC)cc3c3c4c(c5cc(F)c[n+]1c5c32)C(=O)NC4=O (stereo not drawn),KinomeScan,0.1 µM,reference: untreated,remaining binding,100%
Cc1ccc(-c2c(/C=C(\C#N)C(=O)NC(C)C)n(CCCO)c3ncnc(N)c23)cc1,"cell-free assay, competition with immobilised ligand",1 µM,,remaining binding,99%
CNC(=O)C1CCN(c2cc(C)c(F)cc2NC(=O)c2ccc(-c3cc(O)ccc3C)c(C)c2)CC1,"binding, competition with immobilised ligand",1 µM,,remaining binding,99%
CCn1cc(C(=O)O)c(=O)c2c(N)c(F)c(NC3CCCCC3)cc21,kinase activity,"0.1 µM, with: ATP at Km",,inhibition,14.6%
Cc1ccc(C)c(-c2ccc3nc(NC(=O)C4CCCCC4)nn3c2)c1,"enzyme activity, Dundee kinase panel",10 µM,,remaining activity,72%
CC(C)=CC1OC(C)(C)C2C=C3C(=O)C(Cl)=CC(O)C3C3C(O)C4OC4C(=O)C132 (stereo not drawn),"cell-free assay, competition with immobilised ligand",10 µM,,remaining binding,92%
Nc1nc(Nc2ccccc2)sc1C(=O)c1ccccc1,"enzyme activity, inhibitor",10 µM,,remaining activity,9%
Nc1ncc2c(n1)-c1c([nH]c3ccc(C4=CCOCC4)cc13)CCC2,"binding, competition with immobilised ligand",1 µM,,remaining binding,100%
Nc1ncc(-c2cc(-c3cnn(CC(F)(F)F)c3)ncc2F)nc1C(=O)NC1CNCC(F)C1 (stereo not drawn),enzyme activity,1 µM,reference: DMSO control,remaining activity,80.6%
C=CC(=O)N1Cc2nc(-c3cc(-c4cc(Cl)cnc4Cl)c(F)cc3F)n(-c3ccncn3)c2C1,"cell-free assay, inhibitor",1 µM,,inhibition,2.9%
Cc1cnc2nc1Nc1cccc(c1)COC/C=C/COCc1cc(ccc1OCCN1CCOCC1)N2,"binding, competition with immobilised ligand",0.1 µM,,remaining binding,100%
C=CC(=O)N1CCc2ccc(-n3c(=O)ccc4cnc5ccc(-c6cnn(C)c6)cc5c43)cc21,KINOMEscan,1 µM,reference: DMSO control,remaining binding,100%
Cc1cccc(-c2ccc3nc(NC(=O)C4CCCCC4)nn3c2)c1,"enzyme activity, Dundee kinase panel",10 µM,,remaining activity,77%
COc1cc(Nc2nccc(-c3cnn4nc(OC)ccc34)n2)cc(C(F)(F)F)c1,"binding, competition with immobilised ligand",1 µM,,remaining binding,21%
O=C(Nc1cc(-c2ccnc3[nH]ccc23)c(Cl)cn1)[C@H]1CCC[C@@H](NC(=O)C(F)(F)F)C1,"binding, competition with immobilised ligand",0.1 µM,,remaining binding,28%
CCN1CCN(Cc2ccc(C(=O)Nc3ccc(C)c(NCc4cnc5[nH]ccc5c4OC)c3)cc2C(F)(F)F)CC1,"binding, competition with immobilised ligand",1 µM,,remaining binding,88%
C=CC(=O)N1CCCC(n2c(=O)c3ncccc3n(Cc3ccc(Oc4ccccc4)cc3)c2=O)C1 (stereo not drawn),"cell-free assay, competition with immobilised ligand",1 µM,,remaining binding,94%
CN1CCN(Cc2ccc(-c3ccc(CO[C@H]4CCC[C@@H]4NC(=O)c4cc(-c5cnn(C)c5)cnc4N)cc3)cc2)CC1,"enzyme activity, inhibitor",0.1 µM,,inhibition,0%
